Measured values pooled from the literature.
Each line is one published result; not all experiments were run side by side. ± gives the spread as reported.

Structure (SMILES)	test	test system	setting	tissue uptake
CN1C(=O)[C@@H](Cc2ccc(O)c(I)c2)NC(=O)CNC(=O)[C@H](Cc2ccc3ccccc3c2)NC(=O)[C@H](CCCNC(=N)N)NC(=O)[C@H]1CCCNC(=O)c1ccc(CNC(=O)CN2CCN(CC(=O)O)CCN(CC(=O)O)CCN(CC(=O)O)CC2)cc1 [lutetium-177 labelled]	item: 177Lu radioactivity	female CB-17 SCID mice, Daudi xenograft, adrenals	intravenous, 0.16 nmol per mouse, 6 h	0.64 ± 0.13 %ID/g
CCCC[C@@H]1NC(=O)[C@@H](NC(=O)[C@H](CCC(=O)O)NC(=O)CNC(=O)CN2CCN(CC(=O)O)CCN(CC(=O)O)CCN(CC(=O)O)CC2)CCCCNC(=O)C[C@@H](C(N)=O)NC(=O)[C@H](C(C)C)NC(=O)[C@@H]2CCCN2C(=O)[C@H](CCCNC(=N)N)NC(=O)CNC(=O)[C@H](Cc2c[nH]c3ccccc23)NC(=O)[C@H](CCCNC(=N)N)NC(=O)[C@@H](Cc2ccccc2)NC(=O)[C@H](Cc2c[nH]cn2)NC(=O)[C@H](CCC(=O)O)NC1=O [gallium-67 labelled]		normal C57 mice, stomach	intravenous, 0.037 MBq/mouse, 2 h	0.21 ± 0.02 %ID/g
CCCC[C@H](NC(=O)CNC(=O)CNC(=O)CN1CCN(CC(=O)O)CCN(CC(=O)O)CC1)C(=O)N[C@H]1CC(=O)NCCCC[C@@H](C(N)=O)NC(=O)[C@H](Cc2c[nH]c3ccccc23)NC(=O)[C@H](CCCNC(=N)N)NC(=O)[C@@H](Cc2ccccc2)NC(=O)[C@H](Cc2c[nH]cn2)NC1=O [copper-64 labelled]		female C57 mouse, B16/F1 melanoma, brain	intravenous, 0.037 MBq, 24 h	0.04 ± 0.03 %ID/g
CCCC[C@H](NC(=O)CNC(=O)CNC(=O)CN1CCN(CC(=O)O)CCN(CC(=O)O)CCN(CC(=O)O)CC1)C(=O)N[C@H]1CC(=O)NCCCC[C@@H](C(N)=O)NC(=O)[C@H](Cc2c[nH]c3ccccc23)NC(=O)[C@H](CCCNC(=N)N)NC(=O)[C@@H](Cc2ccccc2)NC(=O)[C@H](Cc2c[nH]cn2)NC1=O [lead-203 labelled]		C57 mouse, pancreas	intravenous, 0.056 MBq, 4 h	0.07 ± 0.11 %ID/g
CN(C)c1ccc(-c2nc3ccc(OCCCCCN4CCN5CCN(CC4)CC(=O)[O][Al]([18F])[O]C(=O)C5)cc3s2)cc1		ICR mouse, pancreas	intravenous, 30 min	1.2 ± 0.2 %ID/g
CCCC[C@H](NC(=O)CNC(=O)CNC(=O)CN1CCN(CC(=O)O)CCN(CC(=O)O)CC1)C(=O)N[C@H]1CC(=O)NCCCC[C@@H](C(N)=O)NC(=O)[C@H](Cc2c[nH]c3ccccc23)NC(=O)[C@H](CCCNC(=N)N)NC(=O)[C@@H](Cc2ccccc2)NC(=O)[C@H](Cc2c[nH]cn2)NC1=O [gallium-67 labelled]		female C57 mice, B16/F1 melanoma, blood	intravenous, 0.037 MBq, 0.5 h	2.25 ± 0.09 %ID/g
O=C([O-])CN1CCN(CC(=O)[O-])CCN(CC(=O)[O-])CCN(CC(=O)[O-])CC1.[64Cu+2]		healthy athymic nude mice, kidney	intravenous, 4 h	1.59 %ID/g
NC12CNCCNCC(NCc3ccc(CNC(=O)CCCC(=O)NCc4ccc(-c5nncnn5)cc4)cc3)(CNCCNC1)CNCCNC2.[64Cu+2]		athymic nude mice SW1222 xenograft, muscle	1 h post injection, 24 h accumulation interval, with: huA33-TCO pretargeting	0.38 ± 0.06 %ID/g
C[C@H](CN(C)Cc1ccccc1)NC(=O)c1ccc(-c2noc(C(F)(F)[18F])n2)cc1	PET imaging	female Sprague-Dawley rats, cerebellum	intravenous, 60 min	0.76 ± 0.18 SUV
CC(C)[C@H](NC(=O)[C@@H]1CCCN1C(=O)[C@H](CCCNC(=N)N)NC(=O)[C@H](CS)NC(=O)[C@H](Cc1c[nH]c2ccccc12)NC(=O)[C@H](CCCNC(=N)N)NC(=O)[C@@H](Cc1ccccc1)NC(=O)[C@H](Cc1c[nH]cn1)NC(=O)[C@H](CCC(=O)O)NC(=O)[C@H](CS)NC(=O)[C@H](CS)NC(=O)[C@@H]1CC(=O)N[C@@H](CCCNC(=N)N)C(=O)NCC(=O)N[C@@H](CC(=O)O)C(=O)N[C@H](Cc2ccc(O)cc2)C(=O)N1)C(N)=O [technetium-99m labelled]		C57 mouse, female, B16/F1 melanoma, pancreas	intravenous, 0.037 MBq, 24 h	0.12 ± 0.07 %ID/g
O=C([O-])CN1CCN(CC(=O)[O-])CCN(CC(=O)NCCc2ccc3c(c2)C2C=CCC2C(c2cc4c(cc2Br)OCO4)N3)CCN(CC(=O)[O-])CC1.[111In+3] (centres unmarked)		mouse, Hec50 endometrial tumour, small intestine	0.5 h post injection	11.1 ± 0.84 %ID/g
CCCC[C@H](NC(=O)CNC(=O)CNC(=O)CN1CCN(CC(=O)O)CCN(CC(=O)O)CCN(CC(=O)O)CC1)C(=O)N[C@H]1CC(=O)NCCCC[C@@H](C(N)=O)NC(=O)[C@H](Cc2c[nH]c3ccccc23)NC(=O)[C@H](CCCNC(=N)N)NC(=O)[C@@H](Cc2ccccc2)NC(=O)[C@H](Cc2c[nH]cn2)NC1=O [copper-64 labelled]		female C57 mouse, B16/F1 melanoma, skin	intravenous, 0.037 MBq, 24 h	0.46 ± 0.4 %ID/g
CC(C)[C@H](NC(=O)[C@@H]1CCCN1C(=O)[C@H](CCCNC(=N)N)NC(=O)[C@H](CS)NC(=O)[C@H](Cc1c[nH]c2ccccc12)NC(=O)[C@H](CCCNC(=N)N)NC(=O)[C@@H](Cc1ccccc1)NC(=O)[C@H](Cc1c[nH]cn1)NC(=O)[C@H](CCC(=O)O)NC(=O)[C@H](CS)NC(=O)[C@H](CS)NC(=O)CNC(=O)[C@@H]1CC(=O)N[C@@H](CCCNC(=N)N)C(=O)NCC(=O)N[C@@H](CC(=O)O)C(=O)N[C@H](Cc2ccc(O)cc2)C(=O)N1)C(N)=O [technetium-99m labelled]		C57 mouse, female, B16/F1 melanoma, muscle	intravenous, 0.037 MBq, 2 h	0.57 ± 0.29 %ID/g
O=C(O)C1CN(Cc2ccc(-c3noc(-c4ccc(OCC[18F])c(C(F)(F)F)c4)n3)cc2)C1		Sprague-Dawley rat, male, normal, fat	iv, 120 min	0.059 ± 0.011 %ID/g
